Measured values from different studies.
± gives the spread as reported.
uncharacterized protein: uncharacterized protein (Streptococcus mutans serotype c, UniProt Q8DS94)

`CCCCCCCCc1ccc(C(=O)N[C@@H](CO)C(=O)N[C@H](C(=O)N[C@@H](C)C(=O)N[C@H](C(N)=O)[C@@H](C)CC)[C@@H](C)OP(=O)(O)O)cc1` has an EC50 of 0.58 µM (PLK3 (Homo sapiens, UniProt Q9H4B4); target engagement in cells).
The EC50 of `O=C1SCCC1NC(C(=O)NCc1ccccc1)C1CC1` (stereo not drawn) is reported as 12.9 ± 2.7 µM (Thiosulfate sulfurtransferase (TST, Bos taurus, UniProt P00586); enzyme activity, activator).
The EC50 of `CC[C@H](C)[C@H](NC(=O)[C@H](C)NC(=O)[C@H](CCC(=O)O)NC(=O)[C@H](CC(N)=O)NC(=O)[C@@H](N)CO)C(=O)N[C@@H](CO)C(=O)N1CCC[C@H]1C(=O)N[C@@H](Cc1ccccc1)C(=O)N[C@@H](CC(=O)O)C(=O)N[C@@H](CCC(N)=O)C(=O)NCC(=O)N[C@@H](CCSC)C(=O)N[C@@H](CCSC)C(=O)NCC(=O)N[C@@H](Cc1ccc(O)cc1)C(=O)N[C@H](C(=O)N[C@H](C(=O)N[C@@H](CCCCN)C(=O)N[C@H](C(=O)N[C@@H](CC(N)=O)C(=O)N[C@@H](CCCCN)C(=O)N[C@@H](CC(N)=O)C(=O)N[C@H](C(=O)N1CCC[C@H]1C(=O)N[C@@H](CCCNC(=N)N)C(=O)N[C@@H](CCSC)C(N)=O)[C@@H](C)CC)[C@@H](C)O)[C@@H](C)CC)C(C)C` is reported as roughly 0.061 µM (Ecdysis triggering hormone receptor A (Aedes aegypti, UniProt A7J264)).
The EC50 of `CC(C)C[C@H](NC(=O)[C@H](C)NC(=O)[C@H](CCC(N)=O)NC(=O)[C@@H](NC(=O)[C@H](Cc1ccccc1)NC(=O)[C@H](CO)NC(=O)[C@H](CCCNC(=N)N)NC(=O)[C@H](CC(N)=O)NC(=O)[C@H](Cc1ccccc1)NC(=O)[C@H](CC(C)C)NC(=O)[C@H](CCCNC(=N)N)NC(=O)[C@H](Cc1ccccc1)NC(=O)[C@H](Cc1ccccc1)NC(=O)[C@@H](NC(=O)[C@H](CO)NC(=O)[C@H](CC(C)C)NC(=O)[C@H](CO)NC(=O)CNC(=O)[C@@H](N)CO)[C@@H](C)O)[C@@H](C)O)C(=O)NCC(=O)N[C@H](CCCCN)C(=O)O` is reported as 0.33 µM (uncharacterized protein; Streptococcus mutans).
`O=C(NC1CCCC1=O)C1CCC1` (stereo not drawn) has an EC50 of 7.35 µM (rhlR (Pseudomonas aeruginosa, UniProt P54292); reporter gene, agonist, refers to: rhlI-gfp fluorescence; PAO-JP2 reporter).
With `N=C(N)NCCC[C@H](N)C(=O)N1CCC[C@H]1C(=O)N[C@@H](CCCCN)C(=O)N1CCC[C@H]1C(=O)N[C@@H](CCC(N)=O)C(=O)N[C@@H](CCC(N)=O)C(=O)N[C@@H](Cc1ccccc1)C(N)=O` the EC50 was 1.6 µM (TACR1 (Homo sapiens, UniProt P25103); calcium signal, agonist, fluorescence).
The EC50 of `CCCn1c(SCC(=O)N2CCc3cc(CC)ccc32)nnc1-c1cccnc1` is reported as 17.6 µM (Orco (Drosophila melanogaster, UniProt Q9VNB5); calcium mobilization, agonist; HEK293 expressing Orco).
`CC(C)C[C@H](NC(=O)[C@H](CCCNC(=N)N)NC(=O)[C@H](Cc1ccccc1)NC(=O)[C@H](Cc1ccccc1)NC(=O)[C@@H](NC(=O)[C@H](CO)NC(=O)[C@H](CC(C)C)NC(=O)[C@@H](CO)NC(=O)CNC(=O)[C@@H](N)CO)[C@@H](C)O)C(=O)N[C@@H](Cc1ccccc1)C(=O)N[C@@H](CC(N)=O)C(=O)N[C@@H](CCCNC(=N)N)C(=O)N[C@@H](CO)C(=O)N[C@@H](Cc1ccccc1)C(=O)N[C@H](C(=O)N[C@@H](CCC(N)=O)C(=O)N[C@@H](C)C(=O)O)[C@@H](C)O` has an EC50 of 0.0094 µM (uncharacterized protein; Streptococcus mutans).
With `CC[C@H](C)[C@H](NC(=O)[C@H](C)NC(=O)[C@H](CCC(=O)O)NC(=O)[C@H](C)NC(=O)[C@H](CC(C)C)NC(=O)CNC(=O)[C@@H](NC(=O)[C@H](CCSC)NC=O)[C@@H](C)O)C(=O)N[C@@H](C)C(=O)N[C@@H](CC(N)=O)C(=O)N[C@H](C(=O)N[C@H](C(=O)N[C@@H](CCC(N)=O)C(=O)N[C@@H](C)C(=O)N[C@@H](C)C(=O)N[C@@H](CCC(N)=O)C(=O)N[C@@H](CCC(N)=O)C(=O)N[C@@H](Cc1c[nH]cn1)C(=O)N[C@@H](CC(=O)O)C(=O)N[C@@H](CO)C(=O)N[C@H](C(=O)N[C@@H](CCCCN)C(=O)N[C@@H](CC(C)C)C(=O)NCC(=O)N[C@H](C(=O)N[C@@H](CO)C(=O)N[C@H](C(=O)N[C@H](C(=O)N[C@@H](CC(=O)O)C(=O)N[C@H](C(=O)N[C@@H](C)C(=O)N[C@@H](CC(N)=O)C(=O)NCC(=O)N[C@H](C(=O)NCC(=O)N[C@@H](CC(C)C)C(=O)N[C@@H](CC(C)C)C(=O)NCC(=O)N[C@@H](CCCCN)C(=O)N[C@@H](CC(C)C)C(=O)N[C@@H](Cc1ccccc1)C(=O)NCC(=O)N[C@@H](Cc1ccccc1)C(=O)O)C(C)C)[C@@H](C)CC)C(C)C)[C@@H](C)CC)[C@@H](C)O)C(C)C)C(C)C)[C@@H](C)O` the EC50 was 0.389 µM (FPR2 (Homo sapiens, UniProt P25090); calcium flux, agonist, flow cytometry, Fluo-3; 37 °C).
For `CC[C@H](C)[C@H](NC(=O)[C@H](Cc1c[nH]cn1)NC(=O)[C@@H](NC(=O)[C@H](CCC(N)=O)NC(=O)[C@H](CCCNC(=N)N)NC(=O)[C@@H](NC(=O)[C@@H](N)CCC(=O)O)[C@@H](C)CC)[C@@H](C)O)C(=O)N[C@@H](Cc1ccccc1)C(=O)N[C@@H](Cc1ccccc1)C(=O)N[C@@H](Cc1ccccc1)C(=O)N[C@@H](Cc1ccccc1)C(=O)N[C@@H](Cc1ccccc1)C(=O)N[C@@H](Cc1ccccc1)C(=O)N[C@@H](CCCCN)C(=O)N[C@@H](CCCNC(=N)N)C(=O)N[C@@H](CCCNC(=N)N)C(=O)O`, the EC50 was greater than 10 µM (histidine kinase ComD (Streptococcus pneumoniae serotype 2, UniProt A0A0H2ZM50); reporter gene, agonist; Streptococcus pneumoniae, D39 comX::lacZ; 30 min, pH 7.3, 37 °C).
`CC(C)C[C@H](NC(=O)[C@H](CCCNC(=N)N)NC(=O)[C@H](Cc1ccccc1)NC(=O)[C@H](Cc1ccccc1)NC(=O)[C@@H](NC(=O)[C@H](CO)NC(=O)[C@@H](N)CC(C)C)[C@@H](C)O)C(=O)N[C@@H](Cc1ccccc1)C(=O)N[C@@H](CC(N)=O)C(=O)N[C@@H](CCCNC(=N)N)C(=O)N[C@@H](CO)C(=O)N[C@@H](Cc1ccccc1)C(=O)N[C@H](C(=O)N[C@@H](CCC(N)=O)C(=O)N[C@@H](C)C(=O)O)[C@@H](C)O` gave an EC50 of 0.085 µM (uncharacterized protein; Streptococcus mutans).
`CCN(Cc1ccccc1)C(=O)CCc1nc(CN2CCN(C(=O)Cc3ccc(OC)c(OC)c3)CC2)no1` gave an EC50 of 0.5 ± 0.07 µM (KCNQ2 (Homo sapiens, UniProt O43526); ion current, opener, whole-cell patch clamp; CHO stably expressing channel).
